Measurements collected from several papers.
Protocols differ between the studies behind these lines. ± gives the spread as reported.

| SMILES | assay | test system | conditions | tissue uptake [%ID/g] |
| --- | --- | --- | --- | --- |
| O=C([O-])CN1CCN(CC(=O)[O-])CCN(CC(=O)NCCc2ccc3c(c2)C2C=CCC2C(c2cc4c(cc2Br)OCO4)N3)CCN(CC(=O)[O-])CC1.[111In+3] (centres unmarked) | – | mice with Hec50 tumour xenograft, Hec50 tumour | 4 h | 0.48 ± 0.02 |
| O=C([O-])CN1CCN(CC(=O)[O-])CCN(CC(=O)[O-])CCN(CC(=O)[O-])CC1.[64Cu+2] | – | healthy athymic nude mice, liver | intravenous, 24 h | 1.04 |
| CCCC[C@@H]1NC(=O)[C@@H](NC(=O)[C@H](CCC(=O)O)NC(=O)CNC(=O)CN2CCN(CC(=O)O)CCN(CC(=O)O)CCN(CC(=O)O)CC2)CCCCNC(=O)C[C@@H](C(N)=O)NC(=O)[C@H](C(C)C)NC(=O)[C@@H]2CCCN2C(=O)[C@H](CCCNC(=N)N)NC(=O)CNC(=O)[C@H](Cc2c[nH]c3ccccc23)NC(=O)[C@H](CCCNC(=N)N)NC(=O)[C@@H](Cc2ccccc2)NC(=O)[C@H](Cc2c[nH]cn2)NC(=O)[C@H](CCC(=O)O)NC1=O [gallium-67 labelled] | – | C57 mice with B16/F1 melanoma, pancreas | intravenous, 0.037 MBq, 4 h | 0.07 ± 0.05 |
| CN1C(=O)[C@@H](Cc2ccc(O)c(I)c2)NC(=O)CNC(=O)[C@H](Cc2ccc3ccccc3c2)NC(=O)[C@H](CCCNC(=N)N)NC(=O)[C@H]1CCCNC(=O)c1ccc(CNC(=O)CN2CCN(CC(=O)O)CCN(CC(=O)O)CCN(CC(=O)O)CC2)cc1 [lutetium-177 labelled] | item: 177Lu radioactivity | female CB-17 SCID mice, Daudi xenograft, spleen | intravenous, 0.16 nmol per mouse, 6 h | 1.35 ± 0.41 |
| NC12CNCCNCC(NCc3ccc(CNC(=O)CCCC(=O)NCc4ccc(-c5nncnn5)cc4)cc3)(CNCCNC1)CNCCNC2.[64Cu+2] | – | athymic nude mice, SW1222 xenograft, bone | 24 h post-injection, 24 h pretargeting interval, with: huA33-TCO pretargeting | 0.29 ± 0.05 |
| CC(C)[C@H](NC(=O)[C@@H]1CCCN1C(=O)[C@H](CCCNC(=N)N)NC(=O)[C@H](CS)NC(=O)[C@H](Cc1c[nH]c2ccccc12)NC(=O)[C@H](CCCNC(=N)N)NC(=O)[C@@H](Cc1ccccc1)NC(=O)[C@H](Cc1c[nH]cn1)NC(=O)[C@H](CCC(=O)O)NC(=O)[C@H](CS)NC(=O)[C@H](CS)NC(=O)CNC(=O)[C@@H]1CC(=O)N[C@@H](CCCNC(=N)N)C(=O)NCC(=O)N[C@@H](CC(=O)O)C(=O)N[C@H](Cc2ccc(O)cc2)C(=O)N1)C(N)=O [technetium-99m labelled] | – | female mice, B16/F1 melanoma, kidneys | intravenous, dose not given, 2 h, with: 10 µg NDP-MSH co-injected | 15.5 ± 3.39 |
| CCCC[C@H](NC(=O)CNC(=O)CNC(=O)CN1CCN(CC(=O)O)CCN(CC(=O)O)CC1)C(=O)N[C@H]1CC(=O)NCCCC[C@@H](C(N)=O)NC(=O)[C@H](Cc2c[nH]c3ccccc23)NC(=O)[C@H](CCCNC(=N)N)NC(=O)[C@@H](Cc2ccccc2)NC(=O)[C@H](Cc2c[nH]cn2)NC1=O [gallium-67 labelled] | – | female C57 mice, B16/F1 melanoma, liver | intravenous, 0.037 MBq, 0.5 h | 1.28 ± 0.14 |
| O=C([O-])c1cccc(CN(CCN(Cc2cn(Cc3ccccc3)nn2)Cc2cccc(C(=O)[O-])n2)Cc2cn(Cc3ccccc3)nn2)n1.[64Cu+2] | – | healthy athymic nude mice, heart | intravenous, 1 h | 2.91 |

Excerpt of the above:
| SMILES | assay | test system | conditions | tissue uptake [%ID/g] |
| --- | --- | --- | --- | --- |
| O=C([O-])CN1CCN(CC(=O)[O-])CCN(CC(=O)NCCc2ccc3c(c2)C2C=CCC2C(c2cc4c(cc2Br)OCO4)N3)CCN(CC(=O)[O-])CC1.[111In+3] (centres unmarked) | – | mice with Hec50 tumour xenograft, Hec50 tumour | 4 h | 0.48 ± 0.02 |
